# Experimental data pooled from the literature.
# Protocols differ between the studies behind these lines. Numbers after ± are the reported error.
# Cell line: SH-SY5Y
Compound,test,setting,IC50 [µM]
Cc1cc(NC(=O)c2cccc(-n3cc(NC(=O)Nc4ccc(Cl)cc4)cn3)c2)ccn1,"in-cell Western, measured: phospho-c-Jun","pretreatment 1 h, with: 35 µM 6-OHDA",3.44 ± 2.22
CC(/C=C/c1ccc(OCC(=O)Nc2ccc(F)cc2)cc1)=N/O,"cell growth or viability, MTT",,122
Cc1c(C)c(C)[c-](C)c1C.O=C1c2cccc[n+]2[Ir]([Cl])[N]1CCCCCCCCCC[P+](c1ccccc1)(c1ccccc1)c1ccccc1.[Br-],"cell growth or viability, SRB",24 h,17
CCCCCCCC(=O)Oc1c(C)c(OC)c2c(c1C)OC(=O)[C@@H](CCCCCC)[C@]2(O)/C=C/c1ccccc1 (racemic),"cell growth or viability, SRB",72 h,20.9
CCn1cc(/C=C/c2sc3ccccc3[n+]2CC)c2ccccc21,"cell growth or viability, MTT",24 h,2.2
Cc1ccc(NC(=O)Nc2cnn(-c3cccc(C(=O)Nc4ccnc(C)c4)c3)c2)cc1,mitochondrial depolarization,"pretreatment 1 h, with: 35 µM 6-OHDA, 4 h",0.042 ± 0.031
Cc1c(C)c(C)[c-](C)c1C.O=C([N-]c1ccccc1)c1ccccn1.[Cl-].[Ir+3],"cell growth or viability, SRB",24 h,35
CN(C)C(CNC(=O)Nc1cc(C(F)(F)F)ccc1N1CCOCC1)c1ccncc1 (centres unmarked),"cell growth or viability, LDH",,200
COc1cc(/C=C/C(C)=NO)ccc1OCC(=O)Nc1ccccc1Cl (stereo in doubt),"cell growth or viability, MTT",,49.7
Cc1cc(NC(=O)c2cccc(-n3cc(NC(=O)Nc4ccccc4Cl)cn3)c2)ccn1,mitochondrial depolarization,"pretreatment 1 h, with: 35 µM 6-OHDA, 4 h",0.026 ± 0.019
COc1c(C)c(O)c(C(=O)C=Cc2ccccc2)c(OC)c1C,"cell growth or viability, SRB",72 h,7.52
Cc1cc(NC(=O)c2cccc(-n3cc(NC(=O)Nc4ccccc4)cn3)c2)ccn1,mitochondrial depolarization,"pretreatment 1 h, with: 35 µM 6-OHDA, 4 h",0.025 ± 0.01
Cc1c(C)c(C)[c-](C)c1C.O=C1c2cccc[n+]2[Ir]([Cl])[N]1CCCCCCCCCC[P+](c1ccccc1)(c1ccccc1)c1ccc2ccc3cccc4ccc1c2c34.[Br-],"cell growth or viability, SRB",24 h,27
COc1c(C)c(OS(=O)(=O)c2ccccc2)c(C)c(O)c1C(=O)/C=C/c1ccccc1,"cell growth or viability, SRB",72 h,20.4

# Excerpt of the above:
Compound,test,setting,IC50 [µM]
CCn1cc(/C=C/c2sc3ccccc3[n+]2CC)c2ccccc21,"cell growth or viability, MTT",24 h,2.2
